Measurements from different studies.
Lines come from different studies, so protocols differ. “And” joins repeats or separate records; there may be more than shown. ± gives the spread as reported.
SRPK3: SRSF protein kinase 3 (SRPK3, Homo sapiens, UniProt Q9UPE1)
AMY2: Pancreatic alpha-amylase (AMY2, Sus scrofa, UniProt P00690)
F2: Prothrombin (F2, Homo sapiens, UniProt P00734)
SETDB1 triple Tudor domain: Histone-lysine N-methyltransferase SETDB1, triple Tudor domain (SETDB1, Homo sapiens, UniProt Q15047)
SIRT3: NAD-dependent protein deacetylase sirtuin-3, mitochondrial (SIRT3, Homo sapiens, UniProt Q9NTG7)

| Structure (SMILES) | target | test | system | conditions | inhibition |
| --- | --- | --- | --- | --- | --- |
| N#Cc1ccc(NC(=O)Nc2cccc(O)c2)cc1 | SRPK3 | binding, KINOMEscan competitive binding | – | concentration not given | 72% |
| O=c1c(O)c(-c2ccc(O)cc2O)oc2c(Br)c(O)c(Br)c(O)c12 | AMY2 | enzyme activity, inhibitor | – | 50 µM, with: CNP-G3 substrate | 98.7 ± 1.72% |
| CN(Cc1ccc(/C=C/C(=O)NO)cc1)CC12CC3CC(CC(C3)C1)C2 | human M4 receptor | antagonist radioligand binding | – | 0.05 µM | 0% |
| CC(C)(C)CNC(=O)C[C@H](NC(=O)CCc1ccccc1)C(=O)N[C@@H](Cc1cccnc1)C(=O)NCc1ccccc1Cl | F2 | enzyme activity, inhibitor | – | 100 µM | 12% |
| CC(=O)N[C@@H](CCC(=O)O)C(=O)N[C@@H](Cc1ccccc1)C(=O)N[C@@H](Cc1c[nH]c2ccccc12)C(=O)N[C@@H](CO)C(=O)N[C@@H](Cc1c[nH]c2ccccc12)C(=O)N[C@@H](Cc1ccc(O)cc1)C(=O)N[C@@H](Cc1ccc(O)cc1)C(N)=O | Programmed cell death 1 ligand 1, with PD-1 (CD274, Homo sapiens, UniProt Q9NZQ7) | PD-1/PD-L1 binding, ELISA | – | 10 µM | 17.6 ± 4.1% |
| C[Si](C)(C)C[C@H](CN)CC(=O)O | KATP channel, human | binding, radioligand binding | – | 250 µM, with: [3H]glyburide | 4% |
| CC1CCN(C(=O)c2cccc(NC(=O)Nc3ccc([N+](=O)[O-])cc3)c2)CC1 | Penicillin-binding protein 4 (Staphylococcus aureus, UniProt P72355) | Bocillin-FL binding, fluorescence polarization | – | 50 µM, 1 µM PBP4 | 81.4 ± 9.2% |
| Cc1cccc(O[C@H]2CCC[C@@H](C(C)CNCc3ccncc3)C2)c1 (relative stereo) | LATS1 (Homo sapiens, UniProt O95835) | enzyme activity, inhibitor | – | 1 µM | 4% |
| C=C(NC(=O)c1csc(-c2ccc(NC(=O)CCCCCBr)cc2)n1)C(=O)NC(=C)C(=O)OC | TXNRD1 (Homo sapiens, UniProt Q16881) | enzyme activity | – | 50 µM, 1 h, pH 8.0, 37 °C | no inhibition |
| COCC(=O)N1CCc2cc(-c3csc(NC(=O)c4cc(OC)cc(OC)c4)n3)ccc21 | kainate receptor, rat | radioligand binding | – | 10 µM | 4% |
| C=CS(=O)(=O)Nc1ccc2nc(NCCCCCN(C)C)nc(NCCCCCCN(C)C)c2c1 | SETDB1 triple Tudor domain | – | – | 11.11 µM | 116% |
| COc1ccc(C[C@H](NC(=O)Cc2cccc(Oc3ccccc3)c2)C(=O)N[C@@H](Cc2c[nH]c3ccccc23)C(=O)NCc2ccc(C)cc2)cc1OC | trypsin | enzyme activity, inhibitor | – | 100 µM | -1% |
| COc1cc(-n2cc3cc(F)cc(C(N)=O)c3n2)cc(Cl)c1C1CC(O)(CCO)Cc2ccccc21 (stereo not drawn) | Zinc finger CCCH-type antiviral protein 1 (Homo sapiens, UniProt Q7Z2W4) | enzyme activity, inhibitor | – | 10 µM | 0.67% |
| CCCCCCCCCCCCNC(=S)NCCCC[C@H](NC(=O)OCc1ccccc1)C(=O)N1CCC[C@H]1C(=O)N[C@@H](CCCNC(=N)N)C(N)=O | SIRT1 (Homo sapiens, UniProt Q96EB6) | enzyme activity, inhibitor | – | 10 µM | 17% |
| O=C1CO[C@H](CNC(=O)C2(c3ccc(Cl)cc3)CC2)CN1C1Cc2ccccc2C1 | CCR9 (Homo sapiens, UniProt P51686) | β-arrestin recruitment, antagonist | – | 1 µM | 2% |
| COc1ccc(C2CC(=O)c3c(O)c(Br)c(O)c(Br)c3O2)cc1O (stereo not drawn) | AMY2 | enzyme activity, inhibitor | – | 50 µM, with: CNP-G3 substrate | 40.5 ± 0.66% |
| CC(=O)C12NC(C)(C)CC1(C)C(=O)C1=C2c2c(c3c4n2C(C)(C)CC2=C4C4(CC(C)(C)NC(C)(C4)C2=O)CC3(C)C)C(=O)C(C)(C)N1 (single isomer, unassigned; (+)) | KCNQ3 (Homo sapiens, UniProt O43525) | ion current, inhibitor, patch clamp | HEK-293T | 40 µM | 3% |

| Structure (SMILES) | target | test | system | conditions | inhibition |
| --- | --- | --- | --- | --- | --- |
| CCCCCCCCCCCCCC(=S)NCCCC[C@H](NC(=O)OCc1ccccc1)C(=O)Nc1ccccc1 | SIRT3 | enzyme activity, inhibitor | – | 100 µM | < 5% |
| Brc1ccccc1-c1nnc(CSc2nnnn2-c2ccccc2)o1 | SLC6A3 (Homo sapiens, UniProt Q01959) | ligand displacement, radioligand | – | 10 µM | -15% |
| CCCCCCCCCCCCNC(=S)NCCCC[C@H](NC(=O)OCc1ccccc1)C(=O)N[C@@H](Cc1ccc(O)c([N+](=O)[O-])c1)C(=O)N[C@@H](CCCNC(=N)N)C(N)=O | SIRT3 | enzyme activity, inhibitor | – | 1 µM | 28% |
| Cc1ccc(N(O)/N=N/c2ccc(S(=O)(=O)Nc3nccs3)cc2)cc1 | AMY2 | enzyme activity, inhibitor | – | 300 µg/mL | 47.4% |
| O=C(Nc1ccccc1)Nc1ccccc1O | SRPK3 | binding, KINOMEscan competitive binding | – | concentration not given | 93.3% |
| CCCCCCCCCCCCNC(=S)NCCCC[C@H](NC(=O)OCc1ccccc1)C(=O)N[C@@H](Cc1c[nH]c2ccccc12)C(=O)NC(C)C | SIRT3 | enzyme activity, inhibitor | – | 10 µM | < 5% |
| S=C(NCCCN1CCN(CCCNC(=S)NCc2ccccc2)CC1)NCc1ccccc1 | CXCR4 (Homo sapiens, UniProt P61073) | arrestin recruitment, DiscoverX arrestin | – | 30 µM | 68% and 59% |
| Cc1ccc(CNC(=O)C(CCc2ccccc2)NC(=O)C(NC(=O)Cc2cccc(Oc3ccccc3)c2)C(C)O)cc1 (stereo not drawn) | F2 | enzyme activity, inhibitor | – | 100 µM | 17% |
| C#CC(=O)Nc1ccc2nc(NCCCCCN(C)C)nc(NCCCCCCN(C)C)c2c1 | SETDB1 triple Tudor domain | – | – | 0.412 µM | 39% |
| O=C1c2sc(-c3ccc(N4CCC(CO)CC4)nc3F)nc2CCN1c1cccnc1 | MC3R (Homo sapiens, UniProt P41968) | ligand displacement, radioligand | – | 1 µM | -10% |
| C/C=C/C(=O)Nc1ccc2nc(NCCCCCN(C)C)nc(NCCCCCCN(C)C)c2c1 | CARM1 (Homo sapiens, UniProt Q86X55) | enzyme activity, inhibitor, radiometric | – | 10 µM | 57% |
| O=C1c2sc(-c3ccc(N4CCC(F)C4)nc3F)nc2CCN1c1cccnc1 (stereo not drawn) | PTGER2 (Homo sapiens, UniProt P43116) | ligand displacement, radioligand | – | 1 µM | 1% |
| C[C@H](NC(=O)[C@H](CC(=O)NCC(C)(C)C)NC(=O)C(=O)c1c[nH]c2ccccc12)C(=O)NCc1ccc(F)cc1F | chymotrypsin | enzyme activity, inhibitor | – | 100 µM | 36% |
| CC1Cc2ccccc2N1C(=O)CN1CCN(Cc2ccccc2)CC1 (stereo not drawn) | HTR1B (Homo sapiens, UniProt P28222) | radioligand binding | – | concentration not given, with: [3H]5-CT | 6.6% |
| COc1ccc2c(c1)C(CC(=O)NC(C(=O)NC(CCc1ccccc1)C(=O)NCc1ccc(C)cc1)C(C)O)CC2=O (stereo not drawn) | F2 | enzyme activity, inhibitor | – | 100 µM | 12% |
| O=C(NC1CCC1)[C@H](Cc1c[nH]c2ccccc12)NC(=O)[C@H](CCCCNC(=S)NCCc1noc(=O)[nH]1)NS(=O)(=O)c1cccc(F)c1 | SIRT3 | enzyme activity, inhibitor | – | 10 µM | 3% |

Repeated from above:
| Structure (SMILES) | target | test | system | conditions | inhibition |
| --- | --- | --- | --- | --- | --- |
| CCCCCCCCCCCCCC(=S)NCCCC[C@H](NC(=O)OCc1ccccc1)C(=O)Nc1ccccc1 | SIRT3 | enzyme activity, inhibitor | – | 100 µM | < 5% |
| C[Si](C)(C)C[C@H](CN)CC(=O)O | KATP channel, human | binding, radioligand binding | – | 250 µM, with: [3H]glyburide | 4% |
| CN(Cc1ccc(/C=C/C(=O)NO)cc1)CC12CC3CC(CC(C3)C1)C2 | human M4 receptor | antagonist radioligand binding | – | 0.05 µM | 0% |
| CC1Cc2ccccc2N1C(=O)CN1CCN(Cc2ccccc2)CC1 (stereo not drawn) | HTR1B (Homo sapiens, UniProt P28222) | radioligand binding | – | concentration not given, with: [3H]5-CT | 6.6% |
| COCC(=O)N1CCc2cc(-c3csc(NC(=O)c4cc(OC)cc(OC)c4)n3)ccc21 | kainate receptor, rat | radioligand binding | – | 10 µM | 4% |
